Experimental data from different studies.
Each line is one published result; not all experiments were run side by side. ± marks the error that the study gave.
Cell line: HepG2

| Compound | observed | method | concentration | time | viability |
| --- | --- | --- | --- | --- | --- |
| CC1CCN(C(=O)c2cccc(NC(=O)NC3CCCCC3)c2)CC1 | cell growth or viability | MTT | 100 µM | – | 93.9% |
| COc1ccc2c(c1)c1c(n2CO)CN2CCc3cc(OC)c(OCc4ccccc4)cc3C2C1 (stereo not drawn) | cell growth or viability | – | 5 µM | 24 h | 110% |
| CC1CCN(C(=O)c2cccc(NC(=O)Nc3ccc([N+](=O)[O-])cc3)c2)CC1 | cell growth or viability | MTT | 100 µM | – | 75.7% |
| COc1cc(Oc2c(O)cc(C)cc2OC)c(C(=O)O)c(C)c1O | – | MTT | 10 or 50 µM | 48 h | 118 ± 31.6% |
| CC[C@H](C)[C@@H](C(=O)N[C@@H](Cc1ccc(O)cc1)C(=O)N1CCC[C@H]1C(=O)N[C@@H](Cc1ccccc1)C(=O)O)n1cc(C(Cc2ccc(O)cc2)NC(=O)[C@@H](NC(=O)[C@H](CCCNC(=N)N)NC(=O)[C@@H](N)CC(=O)O)C(C)C)nn1 (stereo partly drawn) | cell growth or viability | MTT | 100 µM | 24 h | 72.3% |
| COc1cc(Oc2c(O)c(Cl)c(C)c(Cl)c2OC)c(C(=O)O)c(C)c1O | – | MTT | 10 or 50 µM | 48 h | 92.6 ± 20% |
| c1cc2nc(c1)-c1cccc(n1)CCCc1ccc(cc1)OCCCCCCOc1ccc(cc1)CCC2 | cell growth or viability | MTT | 200 µM | 24 h | 75.4% |
| COc1ccc2c(c1)c1c(n2CO)CN2CCc3cc(OCc4cccc(F)c4)c(OC)cc3C2C1 (stereo not drawn) | cell growth or viability | – | 10 µM | 24 h | 114% |
| COc1cc(Oc2c(OC)cc(C)c(Br)c2O)c(C(=O)O)c(C)c1O | – | MTT | 10 or 50 µM | 48 h | 115 ± 34.7% |

Repeated from above:
| Compound | observed | method | concentration | time | viability |
| --- | --- | --- | --- | --- | --- |
| CC[C@H](C)[C@@H](C(=O)N[C@@H](Cc1ccc(O)cc1)C(=O)N1CCC[C@H]1C(=O)N[C@@H](Cc1ccccc1)C(=O)O)n1cc(C(Cc2ccc(O)cc2)NC(=O)[C@@H](NC(=O)[C@H](CCCNC(=N)N)NC(=O)[C@@H](N)CC(=O)O)C(C)C)nn1 (stereo partly drawn) | cell growth or viability | MTT | 100 µM | 24 h | 72.3% |
